Measurements pooled from the literature.
Every numbered part comes from another study and shows a few of its results, in no order. Changes are numbered by the printed parent chain.

Set 1 — method: DHFR PCA, deep sequencing; medium: yeast; with: (+)-ABA 200 µM; reference: wild-type fitted maximum; direction: higher = stronger binding
Target: ABI1, truncated, D143A, DHFR fusion (Arabidopsis thaliana)
Setting: methotrexate growth selection, single substitutions
Parent: PYL1, truncated, DHFR fusion (Arabidopsis thaliana); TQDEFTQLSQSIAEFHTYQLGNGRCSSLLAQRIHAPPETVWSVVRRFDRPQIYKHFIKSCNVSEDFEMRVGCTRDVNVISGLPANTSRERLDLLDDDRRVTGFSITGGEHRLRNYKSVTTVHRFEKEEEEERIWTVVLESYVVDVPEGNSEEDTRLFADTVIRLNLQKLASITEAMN
| Substitution | relative binding score |
| --- | --- |
| R132K | 114% |
| E67W | 91.9% |
| N114T | 34.2% |
| P36V | 80.3% |
| H16C | -5.27% |
| A158V | 106% |
| E174G | 81.2% |
| E129D | 117% |
| Y18S | 87.8% |
| S150E | 74.4% |
| R74Y | -0.346% |
| L29F | 55% |
| D3V | 96.4% |
| K126T | 110% |
| E14S | 92.4% |

Set 2 — method: RNA Bind-n-Seq; molecule type: RNA; medium: in vitro; tested at: 200 nM; setting: whole 134-nt RNA, ends assumed; with: 150 mM LiCl; reference: input library; direction: higher = stronger binding; library: 7-deaza-guanosine replaces G
Target: Ras GTPase-activating protein-binding protein 1, full length (G3BP1, Homo sapiens, UniProt Q13283)
Sequence of UniProt Q13283 (whole entry, looked up): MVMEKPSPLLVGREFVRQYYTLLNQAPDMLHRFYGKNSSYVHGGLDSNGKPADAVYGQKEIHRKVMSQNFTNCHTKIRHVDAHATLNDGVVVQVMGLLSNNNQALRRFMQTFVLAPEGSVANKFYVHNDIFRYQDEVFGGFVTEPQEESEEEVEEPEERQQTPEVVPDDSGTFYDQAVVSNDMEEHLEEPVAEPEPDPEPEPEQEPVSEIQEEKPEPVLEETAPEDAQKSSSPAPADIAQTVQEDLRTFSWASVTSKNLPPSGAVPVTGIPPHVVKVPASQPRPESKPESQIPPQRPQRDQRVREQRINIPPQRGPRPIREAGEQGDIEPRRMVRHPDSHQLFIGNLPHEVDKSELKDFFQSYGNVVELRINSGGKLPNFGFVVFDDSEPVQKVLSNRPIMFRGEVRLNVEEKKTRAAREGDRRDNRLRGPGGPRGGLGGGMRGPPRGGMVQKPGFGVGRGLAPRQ
Shared flanks, not repeated: GGGAGUUCUACAGUCCGACGAUC … UGGAAUUCUCGGGUGUCAAGG
| Strand | log2 enrichment |
| --- | --- |
| UCAAGUCCUGUGCUACACAUCGUAUGUACCGAAUCGGGGCCGGGGCCGGGCCGGGAAAGUAUUAUGUUACGCCGUUCGGAUCUGCACUUC | 0.586 |
| ACCAUGCAGGUGGGCAUCUUUGGGAAGUGGGGCAAGGGGGGGAUAGGGAGGGGGAUAACACUUUGGGAACAGGUGGUCCCAGGUCGUUUC | 0.442 |
| CCUCAAGUCCUGUGCUACACAUCGUAUGUACCGAAUCGGUGGGGUGGGUGGGAAAGUAUUAUGUUACGCCGUUCGGAUCUGCACUUCCAG | 0.11 |
| GCAGGAAAUAAAAACAAAUGGAAAUGCUUCGGAUAGUGGCAGGGGUGGGGGUUGCUAAGGAAAGGGUGGGAUGGGAGUGGGUAAAGAGUU | -0.0243 |
| UGGGAGGUGGAUUUUGUUUAUUUUUUUAGCUCAUUUCCAGGGGUGGGAAUUUUUUUUGAAUAUGUGUCAUGAAUAAAGUUGUUUUUGAAA | -0.502 |
| CUCAAGUCCUGUGCUACACAUCGUAUGUACCGAAUCGGAAAAAGGAGGAAAGGAAAGUAUUAUGUUACGCCGUUCGGAUCUGCACUUCCA | -0.559 |
| UGGGUUCUUAUUUCUAACUUGCAUAUGUUUUGUUUUUCAGAAGGAGUUGAGCCUUCCAAGAAGAGGCAGCUUGUAAGUAGAUGAUUAUUA | -1.59 |
| AAGUCCUGUGCUACACAUCGUAUGUACCGAAUCGGUUUUGGGUUUUGGGGUUUUGGAAAGUAUUAUGUUACGCCGUUCGGAUCUGCACUU | -0.356 |
| UCCUGUGCUACACAUCGUAUGUACCGAAUCGGGGAAAGGGGAAAAAAAGGGGAAAGGGGAAAGUAUUAUGUUACGCCGUUCGGAUCUGCA | 0.481 |
| ACCAUGCAGGUGGGCAUCUUUGGGAAGUGGGCCAAGGGGGGGAUAGGGAGGGGGGUAACACUUUGGGAACAGGUGGUCCCAGGUCGUUUC | 0.338 |
| CAAGUCCUGUGCUACACAUCGUAUGUACCGAAUCGGGGUUGGGGUUGGGUUGGGGAAAGUAUUAUGUUACGCCGUUCGGAUCUGCACUUC | 0.572 |

Set 3 — target: CCNB2, cyclin fold, Cln2 fusion (human); method: yeast growth competition, sequencing; medium: yeast; setting: weak parent motif; reference: not given; direction: higher = stronger binding
Parent: WEE1 docking peptide (human); HKTFRKLRLFDTP; partner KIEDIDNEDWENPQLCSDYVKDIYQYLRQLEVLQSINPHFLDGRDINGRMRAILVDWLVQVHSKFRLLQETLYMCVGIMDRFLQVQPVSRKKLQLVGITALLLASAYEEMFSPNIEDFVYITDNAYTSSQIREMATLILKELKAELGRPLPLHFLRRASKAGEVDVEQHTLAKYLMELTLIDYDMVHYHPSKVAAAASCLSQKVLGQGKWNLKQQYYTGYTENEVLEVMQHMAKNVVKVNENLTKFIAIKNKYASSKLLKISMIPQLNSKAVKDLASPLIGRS
| Substitution | normalised enrichment score |
| --- | --- |
| IKTFRKLRLFDTP [H1I] | 1.1 |
| HKTRRKLRLFDTP [F4R] | 0.913 |
| HKTFRKLRLMDTP [F10M] | 0.614 |
| HKTFRKLRLFLTP [D11L] | 0.887 |
| HKTFRKLRLFETP [D11E] | 0.746 |
| HKTFRPLRLFDTP [K6P] | 0.699 |
| HATFRKLRLFDTP [K2A] | 0.379 |
| HKTFRKLRLFDTL [P13L] | 0.573 |
| HKTFRKLRKFDTP [L9K] | 0.874 |
| HKTFRKLRCFDTP [L9C] | 0.678 |
| HKTFRKLRLFDTY [P13Y] | 0.836 |
| HNTFRKLRLFDTP [K2N] | 0.28 |
| HKTWRKLRLFDTP [F4W] | 1.22 |
| HKTFRKLRAFDTP [L9A] | 0.787 |

Set 4 — method: RNA Bind-n-Seq; molecule type: RNA; medium: in vitro; tested at: 365 nM; reference: no-protein control; direction: higher = stronger binding
Target: RNA binding protein fox-1 homolog 2, RRM domain, GST-SBP tag (RBFOX2, Homo sapiens, UniProt O43251-10, residues 100-194)
Setting: natural RNA segment, single round, ends assumed
Shared flanks, not repeated: GGGAGUUCUACAGUCCGACGAUC … UGGAAUUCUCGGGUGCCAA
Residues (chain): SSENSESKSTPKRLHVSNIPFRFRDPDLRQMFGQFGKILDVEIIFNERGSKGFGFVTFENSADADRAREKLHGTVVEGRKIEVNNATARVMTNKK
| Strand | RBNS enrichment (R) |
| --- | --- |
| AAAUGAUAAUAUUGUGUAUUAAGACAUUCCUUAAUUAGGACAAAAUGGCUGCUGUAUAUUUACUAUAUGGAGUUCUGAGUUAAAUACCAUCCUUAAUACUGGGAACAGAA | 0.484 |
| UUGGAUUCCCAGCACCCACUCAGUGGCCCACAACUAUCCAAUACUCCCGAUGCAUGGGAUCCAGUGCCCUCUUCUGAUCUCUAUGGGCAUCAGGCAUGCACACAGUACAC | 14.1 |
| AAGUUCUCAGUCCCAACCUCGGGGAUGUGUGCAGACAGGGCUGUGUGACCACAGCUGGGCCCUGUUCCCUCUGGACCUCGGUCUCCUCAUCUGUGAGAUGCUGUGGCCCA | 0.227 |
| CCGUCUUUGAUUCACCGGGAUGUACAGUUUACAGUUGAAGAGCAAACAGAAAGGUUUUCUCUUGGUGGGAUAUGCAGAACUUGGGAUGUGUGUAUAUAUAAAUAUAUAAU | 1.79 |
| CUGCCUCUGUUCUUUCAACUCCUUUGAGGCUCAAAAAAAACACAAAGAUCAGAAGCCUUCAGAUAGAGGGUGGUAUUCUGGUAAAGAAGAAAGAGAUAAGGGACGCUACC | 0.348 |
| UUUUUAGGAAAAUUGCAUCUGGCUAUGUAUAAAACAGACCUAAAAUAAAUUUCUUUGAUGUCUUCCCUACUUUCUCCACAUCAAUCAGAUUAAAGUGUGUAACCCCAUCU | 0.758 |
| GACCAGGAGGUUGGUAAGAGUGACUAACCAGCCUAACUUUAAUACACAUGUAUAAAGAUGUUCACAGAGAAAGAUGCUCUGUAGAGAAUUUGCUACCGAAGUUGGCUCAA | 0.416 |
| UUCAGGUUGGUGGAAAAUGUCAGUGGUGUAGUGUUGAGGACCUCACUAUUUUUUUUUUUAAAUCAUUUAUCCUAGAGAAGGACUCUGAUCCUUGCUUUCCUAGGUAAAUU | 1 |
| GUAUCCUGACUGAUUCAACCCAGCCGAGCAUAAAUUGACUUGAGCGCCUUACCUUUGAUGUCUGAAGCGAAACUCCUUUCACCAAGGGCCAGAUUCGGAAACUUCAACCU | 0.354 |
| UCCCAAAAUAGUUGUCAGGUUUAAUCAUCAGGCAACACUGCGUAUACCUGUGUGGCUAUCCUCAUCUGCCUGCCCUCUCAUCCCUCGGCUAGAAUGAUGUACUCUACUUU | 0.578 |
| CGAAAGUAAUACUCUGCACCCCUUCCUACAAAGAUGAUAAAGCAGUCACUUCUGGCGCAUUUUAAUAAUUUAAAGAUUUUUAGUGCAAUGGCACGGUAACCUCCAAACCU | 0.216 |
| GCUGCACUGCCUUUCCUUGUCUGCAAAGUUGGUUUUGUCCACUCUGACCAAGACCUCUAGUUUUUGGUGGGUAGGGGGUCUCUCUGGUUUCCCCUUCAGCUAUAAUCUCU | 0.346 |

Some of these lines once more (set 3):
| Substitution | normalised enrichment score |
| --- | --- |
| HKTFRKLRLFDTL [P13L] | 0.573 |
| HKTFRKLRLFDTY [P13Y] | 0.836 |
| HNTFRKLRLFDTP [K2N] | 0.28 |
